Experimental data gathered from unrelated publications.
± marks the error that the study gave.
ampC: Beta-lactamase (ampC, Escherichia coli K-12, UniProt P00811)
UniProt P00811, sequence (whole entry, looked up): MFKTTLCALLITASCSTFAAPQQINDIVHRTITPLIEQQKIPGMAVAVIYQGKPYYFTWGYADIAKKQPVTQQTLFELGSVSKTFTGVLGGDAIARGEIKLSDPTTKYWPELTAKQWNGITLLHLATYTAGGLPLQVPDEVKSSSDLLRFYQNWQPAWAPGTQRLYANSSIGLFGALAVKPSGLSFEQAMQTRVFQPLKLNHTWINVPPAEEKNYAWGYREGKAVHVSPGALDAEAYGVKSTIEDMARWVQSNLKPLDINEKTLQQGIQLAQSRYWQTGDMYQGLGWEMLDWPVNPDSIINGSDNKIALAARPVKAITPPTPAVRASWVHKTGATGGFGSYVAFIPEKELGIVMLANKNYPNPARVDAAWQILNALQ
HLA class I histocompatibility antigen, A alpha chain allele A*24:02: HLA class I histocompatibility antigen, A alpha chain, allele A*24:02 (Homo sapiens, UniProt P04439)
UniProt P03023, sequence (whole entry, unmodified, looked up): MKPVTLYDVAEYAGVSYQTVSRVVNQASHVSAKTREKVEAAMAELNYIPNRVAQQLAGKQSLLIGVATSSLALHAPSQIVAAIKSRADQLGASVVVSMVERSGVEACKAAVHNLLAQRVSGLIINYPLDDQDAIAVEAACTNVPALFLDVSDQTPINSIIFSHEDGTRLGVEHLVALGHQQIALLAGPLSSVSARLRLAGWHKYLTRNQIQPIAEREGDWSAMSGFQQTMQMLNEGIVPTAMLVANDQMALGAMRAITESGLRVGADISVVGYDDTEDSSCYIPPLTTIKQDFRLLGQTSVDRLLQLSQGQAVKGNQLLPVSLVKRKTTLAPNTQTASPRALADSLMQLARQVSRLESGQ
UniProt P51451, sequence (whole entry, looked up): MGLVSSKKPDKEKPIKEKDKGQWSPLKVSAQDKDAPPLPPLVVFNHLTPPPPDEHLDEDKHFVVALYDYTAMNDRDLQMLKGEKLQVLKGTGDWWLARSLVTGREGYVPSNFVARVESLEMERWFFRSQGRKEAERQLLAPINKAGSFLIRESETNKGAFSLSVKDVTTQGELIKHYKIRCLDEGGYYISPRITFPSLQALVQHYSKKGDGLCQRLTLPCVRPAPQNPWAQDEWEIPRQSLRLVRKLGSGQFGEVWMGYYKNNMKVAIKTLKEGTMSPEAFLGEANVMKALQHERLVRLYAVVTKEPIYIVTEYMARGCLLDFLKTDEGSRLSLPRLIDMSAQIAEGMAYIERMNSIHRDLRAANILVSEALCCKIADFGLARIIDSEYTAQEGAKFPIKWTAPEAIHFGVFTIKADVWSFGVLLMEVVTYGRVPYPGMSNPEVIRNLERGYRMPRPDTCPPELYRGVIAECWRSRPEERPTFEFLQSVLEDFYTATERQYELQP
UniProt P16885, sequence (whole entry, looked up): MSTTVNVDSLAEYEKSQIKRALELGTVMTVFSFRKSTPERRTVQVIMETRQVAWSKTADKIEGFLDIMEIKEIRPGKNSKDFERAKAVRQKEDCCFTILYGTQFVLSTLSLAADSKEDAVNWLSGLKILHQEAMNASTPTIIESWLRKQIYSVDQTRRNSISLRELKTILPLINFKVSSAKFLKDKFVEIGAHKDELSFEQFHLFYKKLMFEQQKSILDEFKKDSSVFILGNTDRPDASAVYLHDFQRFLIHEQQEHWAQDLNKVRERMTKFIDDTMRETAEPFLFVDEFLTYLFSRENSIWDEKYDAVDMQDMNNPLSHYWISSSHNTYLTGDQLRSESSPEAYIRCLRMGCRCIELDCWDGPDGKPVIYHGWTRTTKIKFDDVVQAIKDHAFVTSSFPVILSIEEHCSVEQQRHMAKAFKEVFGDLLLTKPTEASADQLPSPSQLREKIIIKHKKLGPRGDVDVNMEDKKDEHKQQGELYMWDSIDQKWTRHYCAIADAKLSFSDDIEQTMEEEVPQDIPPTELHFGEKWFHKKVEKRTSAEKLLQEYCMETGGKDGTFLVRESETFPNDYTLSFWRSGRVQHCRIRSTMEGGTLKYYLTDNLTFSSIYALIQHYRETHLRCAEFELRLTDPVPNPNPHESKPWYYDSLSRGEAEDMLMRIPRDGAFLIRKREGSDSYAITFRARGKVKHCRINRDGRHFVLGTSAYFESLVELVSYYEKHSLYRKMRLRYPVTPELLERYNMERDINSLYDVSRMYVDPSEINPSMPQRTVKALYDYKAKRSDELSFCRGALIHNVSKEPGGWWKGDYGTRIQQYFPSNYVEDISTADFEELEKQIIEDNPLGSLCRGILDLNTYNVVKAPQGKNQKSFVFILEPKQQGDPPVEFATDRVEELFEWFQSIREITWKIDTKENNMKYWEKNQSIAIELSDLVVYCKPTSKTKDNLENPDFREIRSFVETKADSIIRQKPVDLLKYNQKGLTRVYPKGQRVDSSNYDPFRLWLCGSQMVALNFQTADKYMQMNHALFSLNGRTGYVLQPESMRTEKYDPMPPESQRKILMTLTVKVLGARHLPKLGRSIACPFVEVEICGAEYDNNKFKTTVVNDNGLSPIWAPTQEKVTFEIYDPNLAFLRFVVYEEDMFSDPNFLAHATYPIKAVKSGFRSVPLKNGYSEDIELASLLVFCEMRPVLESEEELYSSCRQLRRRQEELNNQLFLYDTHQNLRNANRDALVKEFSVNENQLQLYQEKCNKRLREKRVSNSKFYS
UniProt P41145, sequence (whole entry, unmodified, looked up): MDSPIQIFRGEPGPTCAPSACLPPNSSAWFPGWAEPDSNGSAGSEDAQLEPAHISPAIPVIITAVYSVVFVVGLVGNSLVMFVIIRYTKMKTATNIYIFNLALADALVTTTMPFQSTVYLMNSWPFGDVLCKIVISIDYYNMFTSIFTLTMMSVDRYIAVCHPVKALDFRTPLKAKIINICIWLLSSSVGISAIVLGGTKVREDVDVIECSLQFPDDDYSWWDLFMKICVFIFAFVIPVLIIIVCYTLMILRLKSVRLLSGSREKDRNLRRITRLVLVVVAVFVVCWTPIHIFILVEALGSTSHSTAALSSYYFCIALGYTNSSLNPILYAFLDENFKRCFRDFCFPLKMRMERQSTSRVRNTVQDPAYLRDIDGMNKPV
UniProt P28222, sequence (whole entry, looked up): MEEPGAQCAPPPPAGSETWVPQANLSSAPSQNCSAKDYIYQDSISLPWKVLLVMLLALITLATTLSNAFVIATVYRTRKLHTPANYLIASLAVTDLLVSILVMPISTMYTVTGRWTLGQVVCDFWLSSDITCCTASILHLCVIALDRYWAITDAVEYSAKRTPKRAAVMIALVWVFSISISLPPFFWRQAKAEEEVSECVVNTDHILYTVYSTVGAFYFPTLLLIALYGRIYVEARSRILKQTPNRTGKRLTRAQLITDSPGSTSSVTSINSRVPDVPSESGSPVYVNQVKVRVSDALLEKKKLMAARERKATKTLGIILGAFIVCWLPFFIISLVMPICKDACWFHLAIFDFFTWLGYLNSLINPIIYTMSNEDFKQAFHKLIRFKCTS
UniProt P08684, sequence (whole entry, looked up): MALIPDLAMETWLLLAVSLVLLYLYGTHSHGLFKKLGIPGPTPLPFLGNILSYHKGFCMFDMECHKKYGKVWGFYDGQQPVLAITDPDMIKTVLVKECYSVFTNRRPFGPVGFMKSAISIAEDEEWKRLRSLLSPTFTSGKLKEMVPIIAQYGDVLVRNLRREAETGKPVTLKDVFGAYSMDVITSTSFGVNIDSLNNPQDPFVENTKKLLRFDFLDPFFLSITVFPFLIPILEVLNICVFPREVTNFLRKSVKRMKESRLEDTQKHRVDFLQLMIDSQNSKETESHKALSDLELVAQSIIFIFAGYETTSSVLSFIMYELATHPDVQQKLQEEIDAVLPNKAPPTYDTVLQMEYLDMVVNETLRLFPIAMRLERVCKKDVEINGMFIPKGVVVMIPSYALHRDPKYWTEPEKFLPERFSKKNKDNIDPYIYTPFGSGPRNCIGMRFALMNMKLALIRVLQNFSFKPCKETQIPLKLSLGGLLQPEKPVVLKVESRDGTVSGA

Compound = COC(=O)C(Cc1ccc(F)cc1)NS(=O)(=O)c1cccc(Cl)c1O (stereo not drawn); target = ampC; measurement = Ki; value = 240 µM
Compound = CSCC[C@H](NC(=O)[C@@H](NC(=O)[C@@H]1CCCN1C(=O)[C@@H]1CCCN1C(=O)[C@H](CC(=O)O)NC(=O)[C@@H](NC(=O)[C@@H](N)CCCCN)C(C)C)C(C)C)C(=O)N[C@@H](CCC(=O)O)C(=O)N[C@@H](Cc1ccccc1)C(=O)O; target = HLA class I histocompatibility antigen, A alpha chain allele A*24:02; assay = binding; measurement = IC50; value = 55.7 µM
Compound = COc1ccc(N=Nc2ccc3[nH]cc(CCN(C)C)c3c2)cc1; target = HTR1B (Homo sapiens, UniProt P28222); assay = binding, radioligand binding; setting = ambient light; measurement = Ki; value = 0.0163 µM
Compound = C[C@H]1O[C@@H](Oc2ccccc2[N+](=O)[O-])[C@H](O)[C@@H](O)[C@H]1O; target = lacI (Escherichia coli, UniProt P03023, D149C/N125C); assay = operator DNA binding, nitrocellulose filter binding; setting = with: O1 operator DNA; measurement = EC50; value = 55 ± 1.8 µM
Compound = CSCC[C@H](NC(=O)[C@H](CO)NC(=O)[C@H](CC(C)C)NC(=O)[C@@H](NC(=O)[C@H](Cc1c[nH]cn1)NC(=O)[C@H](CCCCN)NC(=O)[C@H](Cc1ccccc1)NC(=O)[C@H](CCC(N)=O)NC(=O)[C@@H](N)CCCCN)[C@@H](C)O)C(=O)O; target = HLA class I histocompatibility antigen, A alpha chain allele A*24:02; assay = binding; measurement = IC50; value = 30.9 µM
Compound = CC[C@H](C)[C@H](NC(=O)[C@H](CC(=O)O)NC(=O)[C@H](C)NC(=O)[C@H](Cc1ccc(OP(=O)(O)O)cc1)NC(=O)[C@H](CCCCN)NC(=O)[C@@H](NC(=O)[C@H](CC(=O)O)NC(=O)CNC(=O)[C@H](CCCCN)NC(=O)[C@H](CCSC)NC(=O)[C@H](CC(=O)O)NC(=O)[C@H](CC(C)C)NC(=O)[C@H](CCSC)NC(=O)c1ccc2c(c1)C(=O)OC21c2ccc(N(C)C)cc2Oc2cc(N(C)C)ccc21)C(C)C)C(=O)N[C@@H](CCC(=O)O)C(=O)N[C@@H](CO)C(=O)N[C@@H](CO)C(=O)N[C@@H](CC(N)=O)C(=O)N[C@@H](CC(=O)O)C(=O)O; target = Phosphatidylinositol 3-kinase regulatory subunit gamma, SH2 domain (Homo sapiens, UniProt Q92569); assay = binding; measurement = Kd; value = 0.58 µM
Compound = CSCC[C@H](NC(=O)[C@H](Cc1ccc(O)cc1)NC(=O)[C@@H](NC(=O)[C@@H]1CCCN1C(=O)[C@H](Cc1ccc(O)cc1)NC(=O)[C@H](CCC(N)=O)NC(=O)[C@@H](N)Cc1c[nH]cn1)C(C)C)C(=O)N[C@@H](CCC(N)=O)C(=O)N[C@@H](Cc1ccc(O)cc1)C(=O)O; target = HLA class I histocompatibility antigen, A alpha chain, allele A*01:01 (Homo sapiens, UniProt P04439); assay = binding; measurement = IC50; value = 63.3 µM
Compound = CCOC(=O)C(CC1CCCCC1)NS(=O)(=O)c1cccc(Cl)c1O (stereo not drawn); target = ampC; measurement = Ki; value = 95.9 µM
Compound = CC(C)C[C@H](NC(=O)[C@H](CCC(N)=O)NC(=O)[C@H](CCCNC(=N)N)NC(=O)[C@H](CO)NC(=O)[C@H](Cc1ccc(O)cc1)NC(=O)[C@H](CC(C)C)NC(=O)[C@@H](N)CCCNC(=N)N)C(=O)N[C@@H](Cc1c[nH]cn1)C(=O)N[C@@H](Cc1ccccc1)C(=O)O; target = HLA class I histocompatibility antigen, A alpha chain allele A*24:02; assay = binding; measurement = IC50; value = 0.299 µM
Compound = C[C@H]1CN(c2n[nH]c3nc(N[C@H]4CC[C@H](NS(=O)(=O)CCC(F)(F)F)CC4)ncc23)CCO1; target = Cytochrome P450 3A4 (CYP3A4, Homo sapiens, UniProt P08684); assay = enzyme activity, inhibitor; setting = with: atorvastatin, nifedipine, midazolam; measurement = IC50; value = > 100 µM
Compound = CC[C@H](C)[C@H](NC(=O)[C@@H]1CCCN1C(=O)[C@H](CCCCN)NC(=O)[C@H](Cc1ccc(O)cc1)NC(=O)[C@H](CCSC)NC(=O)[C@@H](N)CCCNC(=N)N)C(=O)N[C@H](C(=O)N[C@@H](Cc1c[nH]cn1)C(=O)N[C@@H](Cc1ccccc1)C(=O)O)[C@@H](C)O; target = HLA class I histocompatibility antigen, A alpha chain allele A*24:02; assay = binding; measurement = IC50; value = 0.713 µM
Compound = OC[C@H]1O[C@@H](OCCc2ccccc2)[C@H](O)[C@@H](O)[C@H]1O; target = lacI (Escherichia coli, UniProt P03023, D149A/N125A); assay = operator DNA release, nitrocellulose filter binding; setting = with: O1 operator DNA; measurement = EC50; value = > 1000 µM
Compound = COC(=O)c1cc(NS(=O)(=O)c2cc(Cl)cc(Cl)c2O)cnc1OC; target = ampC; measurement = Ki; value = 72.9 µM
Compound = CSCC[C@H](NC(=O)[C@@H](NC(=O)[C@H](CC(C)C)NC(=O)[C@@H](NC(=O)[C@H](CCCCN)NC(=O)[C@H](CC(N)=O)NC(=O)[C@H](Cc1ccc(O)cc1)NC(=O)[C@H](CCSC)NC(=O)[C@@H](N)CCCNC(=N)N)[C@@H](C)O)[C@@H](C)O)C(=O)O; target = HLA class I histocompatibility antigen, A alpha chain allele A*24:02; assay = binding; measurement = IC50; value = 49.1 µM
Compound = COC(=O)C(CC1CC1)NS(=O)(=O)c1cccc(Cl)c1O (stereo not drawn); target = ampC; measurement = Ki; value = 133 µM
Compound = CC[C@H](C)[C@H](NC(=O)[C@@H](N)CCCCN)C(=O)N[C@@H](Cc1ccccc1)C(=O)N1CCC[C@H]1C(=O)N[C@@H](CCCCN)C(=O)N1CCC[C@H]1C(=O)N[C@@H](CC(C)C)C(=O)N[C@@H](Cc1ccc(O)cc1)C(=O)N[C@@H](CCSC)C(=O)O; target = HLA class I histocompatibility antigen, A alpha chain, allele A*02:01 (Homo sapiens, UniProt P04439); assay = binding; measurement = IC50; value = 0.775 µM
Compound = CC[C@H](C)[C@H](NC(=O)[C@H](CC(=O)O)NC(=O)[C@H](C)NC(=O)[C@H](Cc1ccc(O)cc1)NC(=O)[C@H](CCCCN)NC(=O)c1ccc2c(c1)C(=O)OC21c2ccc(N(C)C)cc2Oc2cc(N(C)C)ccc21)C(=O)N[C@@H](CCC(=O)O)C(=O)N[C@@H](CO)C(=O)N[C@@H](CO)C(=O)N[C@@H](CC(N)=O)C(=O)N[C@@H](Cc1ccc(OP(=O)(O)O)cc1)C(=O)N[C@@H](CCSC)C(=O)N[C@@H](C)C(=O)N1CCC[C@H]1C(=O)N[C@@H](Cc1ccc(O)cc1)C(=O)N[C@@H](CC(=O)O)C(=O)N[C@@H](CC(N)=O)C(=O)N[C@@H](Cc1ccc(O)cc1)C(=O)N[C@@H](CC(=O)O)C(=O)O; target = 1-phosphatidylinositol 4,5-bisphosphate phosphodiesterase gamma-2, SH2 domain (PLCG2, Homo sapiens, UniProt P16885); assay = binding; measurement = Kd; value = 1.27 µM
Compound = COc1cc(Nc2ncc(F)c(Nc3ccc4c(n3)NC(=O)C(C)(C)O4)n2)cc(OC)c1OC; target = PP2A; measurement = IC50; value = > 10 µM
Compound = CC[C@H](C)[C@H](NC(=O)CNC(=O)[C@H](CC(=O)O)NC(=O)[C@H](Cc1ccc(OP(=O)(O)O)cc1)NC(=O)[C@@H]1CCCN1C(=O)[C@H](CCCCN)NC(=O)[C@H](CO)NC(=O)CNC(=O)[C@H](Cc1ccccc1)NC(=O)[C@@H](NC(=O)[C@H](CCSC)NC(=O)[C@H](CC(C)C)NC(=O)[C@H](CCC(=O)O)NC(=O)c1ccc2c(c1)C(=O)OC21c2ccc(N(C)C)cc2Oc2cc(N(C)C)ccc21)[C@@H](C)O)C(=O)N1CCC[C@H]1C(=O)N[C@@H](C)C(=O)N[C@@H](CO)C(=O)N[C@@H](CCC(=O)O)C(=O)N[C@@H](CC(=O)O)C(=O)O; target = Tyrosine-protein kinase Blk, SH2 domain (BLK, Homo sapiens, UniProt P51451); assay = binding; measurement = Kd; value = 1.18 µM
Compound = Cn1ncc(S(=O)(=O)NCc2ccc3c(c2)OC(C)(C)O3)c1C(=O)O; target = ampC; measurement = Ki; value = 194 µM
Compound = NC(N)=Nc1ccc2[nH]c3c(c2c1)C[C@@]1(O)[C@H]2Cc4ccc(O)c5c4[C@@]1(CCN2CC1CC1)[C@H]3O5; target = OPRK1 (Homo sapiens, UniProt P41145, D138A); measurement = Ki; value = 0.0028 µM

A few entries again:
Compound = CC(C)C[C@H](NC(=O)[C@H](CCC(N)=O)NC(=O)[C@H](CCCNC(=N)N)NC(=O)[C@H](CO)NC(=O)[C@H](Cc1ccc(O)cc1)NC(=O)[C@H](CC(C)C)NC(=O)[C@@H](N)CCCNC(=N)N)C(=O)N[C@@H](Cc1c[nH]cn1)C(=O)N[C@@H](Cc1ccccc1)C(=O)O; target = HLA class I histocompatibility antigen, A alpha chain allele A*24:02; assay = binding; measurement = IC50; value = 0.299 µM
Compound = CCOC(=O)C(CC1CCCCC1)NS(=O)(=O)c1cccc(Cl)c1O (stereo not drawn); target = ampC; measurement = Ki; value = 95.9 µM
Compound = COC(=O)C(Cc1ccc(F)cc1)NS(=O)(=O)c1cccc(Cl)c1O (stereo not drawn); target = ampC; measurement = Ki; value = 240 µM
